Measurements from different studies.
Protocols differ between the studies behind these lines. ± marks the error that the study gave.
Target: Prothrombin (F2, Homo sapiens, UniProt P00734)

With `Cc1ccc(O)c(C(=O)Nc2ccc(CN)cc2)c1` the inhibition was 23.6% (enzyme activity, inhibitor; 10 µM).
`CC(C)CCC[C@@H](C)[C@H]1CC[C@H]2[C@@H]3CC=C4C[C@@H](OS(=O)(=O)O)CC[C@]4(C)[C@H]3CC[C@]12C` has a maximal inhibition of 76.9 ± 3.3% (enzyme activity, inhibitor, chromogenic substrate; pH 7.4, 25 °C, 0.02% Tween 80, with: Spectrozyme TH).
The inhibition of `NCc1ccc(NC(=O)c2ccc3ccccc3c2O)cc1` is reported as less than 20% (enzyme activity, inhibitor; 10 µM).
With `CC[C@H](C)[C@H](NC(=O)[C@@H]1CSSC[C@H](NC(=O)[C@H](Cc2ccc(O)cc2)NC(=O)CNC(C)=O)C(=O)N[C@@H](CO)C(=O)N[C@@H](CCCNC(=N)N)C(=O)N[C@@H](CO)C(=O)N[C@@H](Cc2ccc(O)cc2)C(=O)N2CCC[C@H]2C(=O)N2CCC[C@H]2C(=O)N[C@@H](C(C)C)C(=O)N1)C(=O)N1CCC[C@H]1C(=O)N[C@@H](CC(=O)O)C(=O)O` the selectivity ratio was 2170 (reference: Ki thrombin over Ki MASP-2).
With `CC(C)C[C@H](NC(=O)[C@H](CC(N)=O)NC(=O)[C@H](CC(N)=O)NC(=O)[C@@H]1CCCN1C(=O)[C@H](Cc1c[nH]c2ccccc12)NC(=O)[C@H](CC(N)=O)NC(=O)[C@@H](N)CC(C)C)C(=O)N[C@@H](CCC(=O)O)C(=O)NCC(=O)N[C@@H](CCCNC(=N)N)C(=O)N[C@@H](CC(=O)O)C(=O)N1CCC[C@H]1C(=O)N[C@@H](Cc1ccc(O)cc1)C(=O)N[C@@H](CC(N)=O)C(=O)N[C@@H](CCCNC(=N)N)C(=O)O` the bound fraction was no less than 25% (binding, dot blot; 1 h, room temperature, with: thrombin 250 nM).
`CC[C@H](C)[C@H](NC(=O)[C@@H]1CSSC[C@H](NC(=O)[C@H](Cc2ccc(O)cc2)NC(=O)CN)C(=O)N[C@@H](CO)C(=O)N[C@@H](CCCNC(=N)N)C(=O)N[C@@H](CO)C(=O)N[C@@H](Cc2ccc(O)cc2)C(=O)N2CCC[C@H]2C(=O)N2CCC[C@H]2C(=O)N[C@@H](C(C)C)C(=O)N1)C(=O)N1CCC[C@H]1C(=O)N[C@@H](CC(=O)O)C(N)=O` gave a selectivity ratio of 1520 (reference: Ki thrombin over Ki MASP-2).
`CC(C)C[C@H](NC(=O)[C@@H](NC(=O)[C@H](CCCNC(=N)N)NC(=O)CNC(=O)[C@@H]1CCCN1C(=O)[C@H](CC(=O)O)NC(=O)[C@H](CC(=O)O)NC(=O)[C@H](Cc1ccc(O)cc1)NC(=O)[C@H](CC(=O)O)NC(=O)[C@H](CC(N)=O)NC(=O)[C@@H](NC(=O)[C@H](Cc1ccc(O)cc1)NC(=O)[C@@H](N)CCC(=O)O)[C@@H](C)O)[C@@H](C)O)C(=O)N[C@@H](CO)C(=O)NCC(=O)O` has a bound fraction of no less than 25% (binding, dot blot; 1 h, room temperature, with: thrombin 250 nM).
`C#CCC[C@H](NC=O)C(=O)N[C@H]1CSCc2cccc(c2)CSC[C@@H](C(=O)NCC(=O)N[C@@H](CO)C(=O)NCC(=O)N[C@@H](CCON=C(N)N)C(=O)N[C@@H](CC(C)(C)C)C(=O)NCC(=O)N[C@@H](Cc2c[nH]cn2)C(=O)N[C@@H](Cc2c[nH]cn2)C(=O)N[C@@H](Cc2c[nH]cn2)C(=O)N[C@@H](Cc2c[nH]cn2)C(=O)N[C@@H](Cc2c[nH]cn2)C(=O)N[C@@H](Cc2c[nH]cn2)C(=O)N[C@@H](CCON=C(N)N)C(=O)N[C@@H](CC(C)(C)C)C(=O)O)NC(=O)[C@H]([C@@H](C)CC)NC(=O)[C@H](CCON=C(N)N)NC(=O)[C@H](CCC(N)=O)NC(=O)[C@H](C/C=C/CN)NC(=O)[C@H]([C@@H](C)CC)NC(=O)[C@H](C)NC(=O)[C@H](CC(C)(C)C)NC(=O)[C@H](CC(N)=O)NC(=O)[C@H]([C@H](O)CC)NC(=O)[C@H](Cn2oc(=O)[nH]c2=O)NC1=O` — result for “Kd fold increase”: 11 to 80 fold (binding, equilibrium ultrafiltration; reference: linear peptide over cyclic peptide).

For quick reference, copied from above:
`C#CCC[C@H](NC=O)C(=O)N[C@H]1CSCc2cccc(c2)CSC[C@@H](C(=O)NCC(=O)N[C@@H](CO)C(=O)NCC(=O)N[C@@H](CCON=C(N)N)C(=O)N[C@@H](CC(C)(C)C)C(=O)NCC(=O)N[C@@H](Cc2c[nH]cn2)C(=O)N[C@@H](Cc2c[nH]cn2)C(=O)N[C@@H](Cc2c[nH]cn2)C(=O)N[C@@H](Cc2c[nH]cn2)C(=O)N[C@@H](Cc2c[nH]cn2)C(=O)N[C@@H](Cc2c[nH]cn2)C(=O)N[C@@H](CCON=C(N)N)C(=O)N[C@@H](CC(C)(C)C)C(=O)O)NC(=O)[C@H]([C@@H](C)CC)NC(=O)[C@H](CCON=C(N)N)NC(=O)[C@H](CCC(N)=O)NC(=O)[C@H](C/C=C/CN)NC(=O)[C@H]([C@@H](C)CC)NC(=O)[C@H](C)NC(=O)[C@H](CC(C)(C)C)NC(=O)[C@H](CC(N)=O)NC(=O)[C@H]([C@H](O)CC)NC(=O)[C@H](Cn2oc(=O)[nH]c2=O)NC1=O` — result for “Kd fold increase”: 11 to 80 fold (binding, equilibrium ultrafiltration; reference: linear peptide over cyclic peptide).
